Assay results pooled from the literature.
Protocols differ between the studies behind these lines. ± marks the error that the study gave.
Formate-nitrite transporter: Formate-nitrite transporter (Plasmodium falciparum, UniProt O77389)
Sequence of UniProt O77389 (whole entry, looked up): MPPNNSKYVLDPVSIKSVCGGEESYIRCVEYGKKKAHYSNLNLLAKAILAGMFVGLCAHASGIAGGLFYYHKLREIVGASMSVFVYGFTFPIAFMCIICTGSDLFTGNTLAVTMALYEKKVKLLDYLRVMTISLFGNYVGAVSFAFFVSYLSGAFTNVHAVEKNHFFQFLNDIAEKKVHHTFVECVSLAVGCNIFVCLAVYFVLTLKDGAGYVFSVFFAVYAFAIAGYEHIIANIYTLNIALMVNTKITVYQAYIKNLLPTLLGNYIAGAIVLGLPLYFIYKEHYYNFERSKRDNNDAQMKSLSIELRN
SIRT5: NAD-dependent protein deacylase sirtuin-5, mitochondrial (SIRT5, Homo sapiens, UniProt Q9NXA8)
Sequence of UniProt Q9NXA8 (whole entry, looked up): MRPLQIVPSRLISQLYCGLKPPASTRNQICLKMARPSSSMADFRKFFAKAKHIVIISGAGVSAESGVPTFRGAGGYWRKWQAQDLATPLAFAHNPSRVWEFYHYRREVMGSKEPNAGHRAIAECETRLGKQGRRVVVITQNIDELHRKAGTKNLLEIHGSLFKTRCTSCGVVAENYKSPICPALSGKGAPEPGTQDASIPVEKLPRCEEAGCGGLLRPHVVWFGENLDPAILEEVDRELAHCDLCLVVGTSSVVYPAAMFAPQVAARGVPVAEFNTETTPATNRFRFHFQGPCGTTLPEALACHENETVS
blaNDM-1: Metallo-beta-lactamase type 2 (blaNDM-1, Klebsiella pneumoniae, UniProt C7C422)
Sequence of UniProt C7C422 (whole entry, looked up): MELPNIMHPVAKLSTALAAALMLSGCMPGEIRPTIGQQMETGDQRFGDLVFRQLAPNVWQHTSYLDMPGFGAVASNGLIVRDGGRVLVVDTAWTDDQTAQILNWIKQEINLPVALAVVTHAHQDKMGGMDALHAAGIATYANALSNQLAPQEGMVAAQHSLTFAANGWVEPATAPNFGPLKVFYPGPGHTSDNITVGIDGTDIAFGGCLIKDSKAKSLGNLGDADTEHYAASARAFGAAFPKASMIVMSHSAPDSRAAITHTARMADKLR
lasR: Transcriptional activator protein LasR (lasR, Pseudomonas aeruginosa, UniProt P25084)
Sequence of UniProt Q99436 (whole entry, looked up): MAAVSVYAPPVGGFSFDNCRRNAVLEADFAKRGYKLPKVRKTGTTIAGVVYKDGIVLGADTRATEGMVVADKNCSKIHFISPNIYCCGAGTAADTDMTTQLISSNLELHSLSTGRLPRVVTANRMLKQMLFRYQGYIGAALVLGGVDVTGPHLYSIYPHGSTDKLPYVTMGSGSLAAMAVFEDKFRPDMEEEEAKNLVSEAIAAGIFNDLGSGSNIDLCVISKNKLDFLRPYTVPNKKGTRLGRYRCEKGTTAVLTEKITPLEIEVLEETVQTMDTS
Sequence of UniProt P25084 (whole entry, looked up): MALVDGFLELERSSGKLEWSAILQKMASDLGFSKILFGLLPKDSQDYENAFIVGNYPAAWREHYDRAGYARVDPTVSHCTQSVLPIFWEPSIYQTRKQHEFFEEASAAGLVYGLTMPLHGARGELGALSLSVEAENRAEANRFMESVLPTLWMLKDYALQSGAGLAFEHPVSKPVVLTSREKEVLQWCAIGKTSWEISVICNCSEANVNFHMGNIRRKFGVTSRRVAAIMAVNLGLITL
Sequence of UniProt P61073 (whole entry, looked up): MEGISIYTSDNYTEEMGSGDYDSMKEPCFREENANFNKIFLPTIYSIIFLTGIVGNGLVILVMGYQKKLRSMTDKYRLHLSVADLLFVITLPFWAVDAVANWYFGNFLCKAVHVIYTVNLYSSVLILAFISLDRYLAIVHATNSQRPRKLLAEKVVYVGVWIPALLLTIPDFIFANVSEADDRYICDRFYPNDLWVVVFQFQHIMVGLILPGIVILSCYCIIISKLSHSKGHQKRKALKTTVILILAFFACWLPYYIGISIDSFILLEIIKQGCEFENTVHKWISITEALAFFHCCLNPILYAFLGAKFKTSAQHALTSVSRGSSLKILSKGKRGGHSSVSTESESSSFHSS
Sequence of UniProt Q2FDS6 (whole entry, looked up): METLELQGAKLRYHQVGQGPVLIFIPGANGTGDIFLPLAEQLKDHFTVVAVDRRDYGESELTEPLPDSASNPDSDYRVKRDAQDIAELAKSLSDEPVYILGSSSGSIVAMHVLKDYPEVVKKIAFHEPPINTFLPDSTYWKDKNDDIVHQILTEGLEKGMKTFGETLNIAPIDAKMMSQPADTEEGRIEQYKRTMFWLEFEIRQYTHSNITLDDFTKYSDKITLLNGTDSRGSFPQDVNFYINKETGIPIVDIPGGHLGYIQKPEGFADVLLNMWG
Sequence of UniProt Q5XXA6 (whole entry, unmodified, looked up): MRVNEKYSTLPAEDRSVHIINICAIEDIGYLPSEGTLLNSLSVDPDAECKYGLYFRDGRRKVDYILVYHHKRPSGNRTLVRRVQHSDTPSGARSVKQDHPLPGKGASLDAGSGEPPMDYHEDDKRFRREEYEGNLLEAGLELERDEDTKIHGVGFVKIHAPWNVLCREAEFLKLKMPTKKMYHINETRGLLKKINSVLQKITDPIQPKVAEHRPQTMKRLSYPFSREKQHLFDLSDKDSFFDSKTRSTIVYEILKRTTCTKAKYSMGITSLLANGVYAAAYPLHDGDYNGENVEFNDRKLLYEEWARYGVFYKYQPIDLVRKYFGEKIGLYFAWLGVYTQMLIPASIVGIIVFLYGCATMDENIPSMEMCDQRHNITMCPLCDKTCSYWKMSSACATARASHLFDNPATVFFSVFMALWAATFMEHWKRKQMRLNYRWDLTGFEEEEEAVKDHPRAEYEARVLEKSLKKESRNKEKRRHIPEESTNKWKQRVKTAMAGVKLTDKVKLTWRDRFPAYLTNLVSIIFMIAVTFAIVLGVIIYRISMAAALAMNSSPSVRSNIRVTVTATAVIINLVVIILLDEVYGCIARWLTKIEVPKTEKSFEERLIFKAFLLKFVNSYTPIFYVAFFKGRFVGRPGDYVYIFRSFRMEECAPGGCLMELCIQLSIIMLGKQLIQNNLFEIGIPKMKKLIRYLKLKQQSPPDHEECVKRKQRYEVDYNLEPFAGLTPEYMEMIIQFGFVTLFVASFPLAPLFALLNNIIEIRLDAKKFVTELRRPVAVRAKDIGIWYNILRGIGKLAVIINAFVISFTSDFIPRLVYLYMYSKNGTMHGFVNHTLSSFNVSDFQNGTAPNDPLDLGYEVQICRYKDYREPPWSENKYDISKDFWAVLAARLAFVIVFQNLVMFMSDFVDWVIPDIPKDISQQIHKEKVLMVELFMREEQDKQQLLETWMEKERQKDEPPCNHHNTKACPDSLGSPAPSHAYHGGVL
Sequence of UniProt Q8N3A8 (whole entry, looked up): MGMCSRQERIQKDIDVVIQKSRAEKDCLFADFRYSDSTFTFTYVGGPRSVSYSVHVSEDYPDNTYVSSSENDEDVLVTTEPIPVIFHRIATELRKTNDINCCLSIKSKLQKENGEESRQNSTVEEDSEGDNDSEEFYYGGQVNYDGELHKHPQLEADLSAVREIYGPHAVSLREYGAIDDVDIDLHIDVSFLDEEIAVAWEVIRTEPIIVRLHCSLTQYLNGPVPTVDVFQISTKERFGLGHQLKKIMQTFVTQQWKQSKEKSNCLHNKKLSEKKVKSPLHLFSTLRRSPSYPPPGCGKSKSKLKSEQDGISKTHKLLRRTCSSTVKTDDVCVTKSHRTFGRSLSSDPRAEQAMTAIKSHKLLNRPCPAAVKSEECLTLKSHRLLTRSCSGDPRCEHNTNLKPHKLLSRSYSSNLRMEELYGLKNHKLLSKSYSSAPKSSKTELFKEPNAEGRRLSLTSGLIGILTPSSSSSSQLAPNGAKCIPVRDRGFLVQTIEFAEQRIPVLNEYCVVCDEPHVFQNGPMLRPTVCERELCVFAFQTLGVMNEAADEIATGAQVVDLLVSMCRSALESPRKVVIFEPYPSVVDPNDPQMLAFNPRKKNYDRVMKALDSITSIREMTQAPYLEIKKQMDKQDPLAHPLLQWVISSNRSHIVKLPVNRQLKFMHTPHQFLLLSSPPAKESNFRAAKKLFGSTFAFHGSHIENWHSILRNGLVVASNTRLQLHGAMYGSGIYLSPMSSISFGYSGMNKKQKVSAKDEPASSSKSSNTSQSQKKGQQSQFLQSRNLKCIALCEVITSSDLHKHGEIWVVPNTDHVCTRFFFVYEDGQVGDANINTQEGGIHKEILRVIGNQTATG
Sequence of UniProt P55212 (whole entry, looked up): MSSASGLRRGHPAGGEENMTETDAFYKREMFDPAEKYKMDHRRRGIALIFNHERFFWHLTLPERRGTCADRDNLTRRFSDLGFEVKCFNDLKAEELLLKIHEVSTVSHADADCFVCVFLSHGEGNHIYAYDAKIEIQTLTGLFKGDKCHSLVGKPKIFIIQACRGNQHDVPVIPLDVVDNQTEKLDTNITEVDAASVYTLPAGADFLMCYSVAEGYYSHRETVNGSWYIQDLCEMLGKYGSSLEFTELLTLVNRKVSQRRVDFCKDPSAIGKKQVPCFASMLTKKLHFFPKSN
Sequence of UniProt P23141 (whole entry, looked up): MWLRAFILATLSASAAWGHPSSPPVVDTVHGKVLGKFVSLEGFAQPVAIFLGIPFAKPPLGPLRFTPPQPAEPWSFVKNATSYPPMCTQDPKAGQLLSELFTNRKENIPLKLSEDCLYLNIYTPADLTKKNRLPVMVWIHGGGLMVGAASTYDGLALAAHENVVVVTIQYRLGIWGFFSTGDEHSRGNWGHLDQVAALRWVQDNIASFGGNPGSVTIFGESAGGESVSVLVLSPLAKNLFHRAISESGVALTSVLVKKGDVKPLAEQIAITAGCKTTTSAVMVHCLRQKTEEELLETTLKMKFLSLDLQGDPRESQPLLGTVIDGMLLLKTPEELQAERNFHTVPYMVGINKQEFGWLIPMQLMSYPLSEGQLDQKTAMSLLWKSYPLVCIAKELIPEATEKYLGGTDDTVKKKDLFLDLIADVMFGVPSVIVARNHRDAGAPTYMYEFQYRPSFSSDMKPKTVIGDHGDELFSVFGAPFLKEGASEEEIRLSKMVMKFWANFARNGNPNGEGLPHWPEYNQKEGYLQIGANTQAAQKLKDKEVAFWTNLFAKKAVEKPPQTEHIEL
Sequence of UniProt P0A6M2 (whole entry, unmodified, looked up): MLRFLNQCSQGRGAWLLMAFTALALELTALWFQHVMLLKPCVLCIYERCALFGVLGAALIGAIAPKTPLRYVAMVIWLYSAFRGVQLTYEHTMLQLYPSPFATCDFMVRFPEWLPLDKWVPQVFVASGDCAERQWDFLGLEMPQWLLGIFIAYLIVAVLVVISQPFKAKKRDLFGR

SMILES | target | assay | system | setting | IC50
CCC(C)C1OC2(CCC1C)CC1CC(C/C=C(\C)C(OC3CC(OC)C(OC4CC(OC)C(O)C(C)O4)C(C)O3)C(C)/C=C/C=C3\COC4C(O)C(C)=CC(C(=O)O1)C34O)O2 (centres unmarked) | Anoctamin-1 (ANO1, Homo sapiens, UniProt Q5XXA6, del476-501) | inhibitor |  |  | 29.1 ± 2.7 µM
CSCC[C@@H]1NC(=O)[C@H](Cc2ccccc2)NC(=O)[C@@H](NC(=O)[C@@H](N)CCCCN)CSC(=O)[C@H](C(C)C)NC(=O)[C@H](Cc2ccccc2)NC1=O | Histidine kinase AgrC (Listeria monocytogenes, UniProt A8E0G3) | agr signalling |  |  | 0.233 µM
CNc1nc(N[C@@H](CCO)c2ccccc2Cl)nc(N2CCN(C(=O)CCl)C(C(=O)NCC3CCNC3=O)C2)n1 (some centres unmarked) | Caspase-6 (CASP6, Homo sapiens, UniProt P55212) | enzyme activity, inhibitor |  |  | > 50 µM
CC(C)Nc1ccc(C(=O)C=C(O)C(F)(F)C(F)(F)F)cn1 | Formate-nitrite transporter | L-lactate transport, inhibitor, fluorescence | yeast | pH 6.8, together with: L-lactate 1 mM | 0.117 ± 0.008 µM
N=C(N)NCCC[C@H](NC(=O)[C@H](CCCCNC(=O)c1cncc(OS(=O)(=O)F)c1)NC(=O)CCC[P+](c1ccccc1)(c1ccccc1)c1ccccc1)C(=O)NC1CCC1 | SIRT5 | inhibitor, fluorogenic |  | pre-incubation 24 h, together with: NAD+ 500 µM | 5 ± 1.4 µM
O=C(C=C(O)C(F)(F)C(F)(F)F)c1ccco1 | Formate-nitrite transporter | L-lactate transport, inhibitor, fluorescence | yeast | pH 6.8, together with: L-lactate 1 mM | 0.059 ± 0.003 µM
C#CCNC(=O)c1ccc(S(=O)(=O)N[C@@H](CCCCNC(=O)c2cc(OS(=O)(=O)F)c3ccccc3c2O)C(=O)N[C@@H](Cc2c[nH]c3ccccc23)C(=O)NC2CCC2)cc1 | SIRT5 | inhibitor, fluorogenic |  | 0 h preincubation, His-tagged enzyme 150 nM, together with: NAD+ 500 µM | 28.9 ± 11.7 µM
CC12CCC3C4CCC(C#N)CC4CCC3C1CCC2O (centres unmarked) | Alpha-2A adrenergic receptor (ADRA2A, Homo sapiens, UniProt P08913) | antagonist |  |  | 6.82 µM
COCCCC1CCCCN1C(=O)Oc1ccc([N+](=O)[O-])cc1 (centres unmarked) | Liver carboxylesterase 1 (CES1, Homo sapiens, UniProt P23141) | enzyme activity, inhibitor |  |  | 0.11 µM
O=C(C=C(O)C(F)(F)C(F)(F)F)c1cccnc1 | Formate-nitrite transporter | L-lactate transport, inhibitor, fluorescence | yeast | pH 6.8, together with: L-lactate 1 mM | 0.095 ± 0.003 µM
NC(=O)C[C@H]1NC(=O)[C@@H](CCC(=O)O)NC(=O)[C@H](CCC(=O)O)NC(=O)[C@@H]2CCCN2C(=O)[C@H](C(c2ccccc2)c2ccccc2)NC(=O)[C@@H]2CCCN2C(=O)[C@H]2CCCN2C(=O)[C@H](Cc2c[nH]cn2)NC1=O | blaNDM-1 | enzyme activity, inhibitor, absorbance |  |  | 275 µM
O=C(C=C(O)C(F)(F)C(F)(F)F)c1ccc(NCC2CC2)nc1 | Formate-nitrite transporter | L-lactate transport, inhibitor, fluorescence | yeast | pH 6.8, together with: L-lactate 1 mM | 0.064 ± 0.016 µM
CSCC[C@H](NC(=O)[C@@H](N)CCCNC(=N)N)C(=O)N[C@@H](CO)C(=O)N[C@@H](C)C(=O)N1CCC[C@H]1C(=O)N[C@@H](CO)C(=O)N[C@H](C(=O)NCC(=O)NCC(=O)N[C@H](C(=O)O)C(C)C)[C@@H](C)O | HLA class I histocompatibility antigen, A alpha chain, allele A*02:17 (Homo sapiens, UniProt P04439) | binding |  |  | 18.6 µM
O=C(c1cc(Cc2n[nH]c(=O)c3ccccc23)ccc1F)N1CC(CNC2CC2)C1 | Protein mono-ADP-ribosyltransferase PARP8 (Homo sapiens, UniProt Q8N3A8) | enzyme activity, inhibitor |  |  | > 10 µM
O=C(CCc1ccc(C(F)(F)F)cc1)N[C@H]1CCOC1=O | lasR | reporter gene, antagonist | Escherichia coli, JLD271 with LasR plasmid | together with: OdDHL 2 nM | no inhibition
C#CCNC(=O)c1ccc(S(=O)(=O)N[C@@H](CCCCNC(=O)c2cncc(OS(=O)(=O)F)c2)C(=O)N[C@@H](CCCNC(=N)N)C(=O)NC2CCC2)cc1 | SIRT5 | inhibitor, fluorogenic |  | 0 h preincubation, non-tagged enzyme 150 nM, together with: NAD+ 500 µM | > 200 µM
O=P(O)(O)Oc1cc(OP(=O)(O)O)c(OP(=O)(O)O)cc1OP(=O)(O)O | Type II inositol 1,4,5-trisphosphate 5-phosphatase (Homo sapiens, UniProt P32019) |  |  |  | 6.3 ± 0.8 µM
O=C(C=C(O)C(F)(F)c1ccccc1)c1cccnc1 | Formate-nitrite transporter | L-lactate transport, inhibitor, fluorescence | yeast | pH 6.8, together with: L-lactate 1 mM | 0.96 ± 0.132 µM
O=C(O)C1=C[C@H](O)[C@@H](NC(=O)c2ccc(-c3ccccc3)cc2)[C@H]([C@H](O)[C@H](O)CO)O1 | Sialidase-2 (Homo sapiens, UniProt Q9Y3R4) | enzyme activity, inhibitor |  |  | 80 µM

SMILES | target | assay | system | setting | IC50
COc1c(Cl)cnn(-c2cccc(C)c2)c1=O | Disulfide bond formation protein B (Escherichia coli, UniProt P0A6M2, C49V/C8A) | enzyme activity, inhibitor |  |  | 4.87 to 6.12 µM
CC[C@H](C)[C@@H]1NC(=O)[C@@H](CCCCN)NC(=O)[C@H](CC(=O)O)NC(=O)[C@H]2CCCN2C(=O)[C@@H](CCC(N)=O)NC(=O)[C@H](C(C)C)NC(=O)[C@@H]2CCCN2C(=O)[C@@H](CS)NC1=O | blaNDM-1 | enzyme activity, inhibitor, absorbance |  |  | 11.5 µM
OC[C@@H]1[C@@H](O)[C@H](O)[C@@H](O)[C@H]2N[C@@H]12 | Oligosaccharide 4-alpha-D-glucosyltransferase (agd31B, Cellvibrio japonicus, UniProt B3PEE6) | enzyme activity, inhibitor |  | 30 min preincubation, pH 6.5, 25 °C | 1.42 ± 0.06 µM
CN1CCCN(C(=O)c2ccc(S(=O)(=O)F)cc2)c2ccccc21 | Uncharacterized hydrolase SAUSA300_2518 (Staphylococcus aureus, UniProt Q2FDS6) | enzyme activity, inhibitor |  |  | > 50 µM
CC[C@H](C)[C@H](NC(=O)[C@H](CCC(=O)O)NC(=O)[C@H](C)NC(=O)[C@@H](NC(=O)[C@H](Cc1c[nH]cn1)NC(=O)[C@H]1CCC[C@@H]1NC(=O)[C@H](CCC(=O)O)NC(=O)[C@H](C)NC(=O)[C@H]1CCC[C@@H]1NC(=O)[C@H](CC(C)C)NC(=O)[C@H](Cc1c[nH]cn1)NC(=O)[C@H](Cc1c[nH]cn1)NC(=O)[C@H]1CCC[C@@H]1NC(=O)[C@H](Cc1ccccc1)NC(=O)[C@H](Cc1ccccc1)NC(=O)[C@H](CCCNC(=N)N)NC(=O)[C@H](CCCNC(=N)N)NC(=O)[C@H](CCCNC(=N)N)NC(=O)[C@H](CC(C)C)NC(=O)[C@H](CC(=O)O)NC(=O)[C@H](CCC(N)=O)NC(=O)[C@@H](NC(=O)[C@H](CO)NC(=O)[C@H](CCCCN)NC(=O)CNC(=O)[C@H](CCCCN)NC(=O)[C@H](CC(=O)O)NC(=O)[C@H](Cc1c[nH]cn1)NC(=O)[C@H](CC(C)C)NC(=O)[C@H](CC(C)C)NC(=O)[C@H](CCC(N)=O)NC(=O)[C@H](Cc1c[nH]cn1)NC(=O)[C@H](CCC(=O)O)NC(=O)[C@H](CO)NC(=O)[C@@H](NC(=O)[C@H](C)N)C(C)C)[C@@H](C)CC)[C@@H](C)O)C(N)=O | Parathyroid hormone/parathyroid hormone-related peptide receptor (PTH1R, Homo sapiens, UniProt Q03431) | ligand displacement, radioligand |  | cell membranes | 0.011 µM
CC(C)C[C@H](NC(=O)[C@H](Cc1ccc(CN)cc1)NC(=O)[C@H](Cc1ccccc1)N=[N+]=[N-])C(=O)N[C@@H](CC1CCCC2CCCCC21)C(=O)[C@@]1(C)CO1 (some centres unmarked) | Proteasome subunit beta type-7 (PSMB7, Homo sapiens, UniProt Q99436) | inhibitor, competitive ABPP | Raji cell lysate | constitutive proteasome β2c | 0.349 µM
O=C(O)CCn1c(=O)oc2cc(Cl)c(Cl)cc21 | Aurora kinase B (AURKB, Homo sapiens, UniProt Q96GD4) | inhibitor |  |  | > 31.6 µM
Cc1ccc2c(n1)c(-c1cccc(S(C)(=O)=O)c1)c(C)n2C/C(F)=C/CN | Diamine oxidase [copper-containing] (AOC1, Homo sapiens, UniProt P19801) | enzyme activity, inhibitor, fluorescence |  |  | 0.041 µM
CC(C)C[C@@H](N)C(=O)NCC(=O)N[C@H](C)C(=O)N[C@H](CO)C(=O)N[C@H](Cc1c[nH]c2ccccc12)C(=O)N[C@H](Cc1c[nH]cn1)C(=O)N[C@H](CCCNC(=N)N)C(=O)N1CCC[C@@H]1C(=O)N[C@H](CC(=O)O)C(=O)N[C@H](CCCCN)C(=O)N[C@H](CCCCN)C(=O)N[C@H](CCCNC(=N)N)C(=O)NCCCCCC(=O)N[C@H](CCCCN)C(=O)N[C@H](CCCNC(=N)N)C(=O)N[C@H](CCCCN)C(=O)N[C@H](CS)C(=O)N[C@@H](C(=O)N[C@H](CCCNC(=N)N)C(=O)N1CCC[C@@H]1C(=O)N[C@H](CC(N)=O)C(=O)N[C@H](CC(N)=O)C(=O)N[C@H](CC(N)=O)C(=O)N[C@@H](C(N)=O)[C@H](C)O)[C@H](C)O | C-X-C chemokine receptor type 4 (CXCR4, Homo sapiens, UniProt P61073) | antagonist |  | concentration not given | 0.0428 µM
CN(C)C(=O)[C@@H](NC(=O)c1cc(-c2ccnn2C)ccc1-c1ccc(C(F)(F)F)cc1)c1cccc(C(F)(F)F)c1 | NKG2-D type II integral membrane protein, with MICB (KLRK1, Homo sapiens, UniProt P26718) | ligand binding, inhibitor, cellular TR-FRET displacement |  | together with: human MICB-AF647 at KD | 1.3 µM
Cc1nc(N2CCC(N(C)c3cc(C(=O)NCCN4CCCC4)cnn3)CC2)nc(C)c1CC(C)C | Cytochrome P450 2C8 (CYP2C8, Homo sapiens, UniProt P10632) | enzyme activity, inhibitor |  |  | > 30 µM
CN1CCCCC1C(=O)NC(Cc1ccc(-c2ccccc2)cc1)B(O)O (centres unmarked) | Proteasome subunit beta type-3/PSMB7 (Homo sapiens, UniProt P49720+Q99436) | β2c trypsin-like activity, inhibitor |  | constitutive proteasome, together with: Ac-KQL-AMC | > 10 µM
O=C(CCc1ccc(Br)cc1)N[C@H]1CCOC1=O | lasR | reporter gene, antagonist | PAO-JP2 | together with: OdDHL 30 nM | 7.3 µM
Cc1ccc(C2=CCC(C)(C)c3ccc(C(=O)Nc4ccc(C(=O)O)cc4)cc32)cc1 | Retinoic acid receptor alpha (RARA, Homo sapiens, UniProt P10276) |  |  |  | 0.015 µM
C#CCNC(=O)c1ccc(S(=O)(=O)N[C@@H](CCCCNC(C)=S)C(=O)N[C@@H](CCCNC(=N)N)C(=O)N[C@@H](CC2CCCCC2)C(=O)N[C@H](CCCCN)C(=O)N[C@@H](CC2CCCCC2)C(=O)N[C@H](CCCNC(=N)N)C(=O)N[C@@H](CC2CCCCC2)C(N)=O)cc1 | NAD-dependent protein deacetylase sirtuin-2 (SIRT2, Homo sapiens, UniProt Q8IXJ6) | enzyme activity, inhibitor, fluorescence |  |  | 2.44 µM
FC(F)(F)C(F)(F)c1nc(-c2cccnc2)n[nH]1 | Formate-nitrite transporter | L-lactate transport, inhibitor, fluorescence | yeast | pH 6.8, together with: L-lactate 1 mM | 18.8 ± 4.59 µM
CC(C)C[C@@H]1NC(=O)[C@@H]2CCCN2C(=O)[C@@H](CS)NC(=O)[C@H](Cc2ccc(O)cc2)NC(=O)[C@@H](CCCNC(=N)N)NC(=O)[C@@H]([C@H](C)O)NC(=O)C(C)(C)NC(=O)[C@@H]2CCCN2C1=O | blaNDM-1 | enzyme activity, inhibitor, absorbance |  |  | 22.3 µM
CC[C@H](C)[C@H](N)C(=O)N[C@@H](CCCNC(=N)N)C(=O)N[C@@H](CCC(N)=O)C(=O)N[C@@H](CCC(=O)O)C(=O)N[C@@H](CCC(=O)O)C(=O)N[C@H](C(=O)N[C@@H](CCC(N)=O)C(=O)N[C@@H](CCC(=O)O)C(=O)N[C@@H](CC(C)C)C(=O)O)C(C)C | HLA class I histocompatibility antigen, A alpha chain, allele A*26:01 (Homo sapiens, UniProt P04439) | peptide-MHC binding, radioligand competition binding |  |  | > 70 µM
CCCCCCCCCCCCCCCCCC(=O)NC[C@H]1CC[C@H](C(=O)N[C@@H](CCC(=O)NCCCOCCOCCOCCCNC(=O)COCC(=O)N[C@@H](Cc2ccc(O)cc2)C(=O)NC(C)(Cc2ccccc2)C(=O)N[C@@H](CC(C)C)C(=O)N[C@@H](CCCC)C(=O)N[C@@H](CCCNC(=N)N)C(=O)N2CCC[C@H]2C(=O)N[C@@H](CCCNC(=N)NC)C(=O)N[C@@H](CC(N)=O)C(N)=O)C(=O)O)CC1 (some centres unmarked) | Neuromedin-U receptor 2 (Mus musculus, UniProt Q8BZ39) | ligand displacement, radioligand |  |  | 0.000257 µM

Repeated from above:
SMILES | target | assay | system | setting | IC50
Cc1ccc2c(n1)c(-c1cccc(S(C)(=O)=O)c1)c(C)n2C/C(F)=C/CN | Diamine oxidase [copper-containing] (AOC1, Homo sapiens, UniProt P19801) | enzyme activity, inhibitor, fluorescence |  |  | 0.041 µM
CSCC[C@@H]1NC(=O)[C@H](Cc2ccccc2)NC(=O)[C@@H](NC(=O)[C@@H](N)CCCCN)CSC(=O)[C@H](C(C)C)NC(=O)[C@H](Cc2ccccc2)NC1=O | Histidine kinase AgrC (Listeria monocytogenes, UniProt A8E0G3) | agr signalling |  |  | 0.233 µM
COc1c(Cl)cnn(-c2cccc(C)c2)c1=O | Disulfide bond formation protein B (Escherichia coli, UniProt P0A6M2, C49V/C8A) | enzyme activity, inhibitor |  |  | 4.87 to 6.12 µM
